# Measured values of several laboratories.
# Every numbered part comes from another study and shows a few of its results, in no order.

# Series 1
# Target: Fragile X messenger ribonucleoprotein 1, C-terminal low-complexity region (Fmr1, Mus musculus, UniProt P35922)
# Method: RNA Bind-n-Seq
# Molecule type: RNA
# Matrix: in vitro
# Concentration: 200 nM
# Notes: whole 134-nt RNA, ends assumed
# Together with: 150 mM KCl
# Reference: input library
# Direction: higher = stronger binding
# Shared flanks, not repeated: GGGAGUUCUACAGUCCGACGAUC … UGGAAUUCUCGGGUGUCAAGG
Oligonucleotide,log2 enrichment
GUCCUGUGCUACACAUCGUAUGUACCGAAUCGGUUUUUGGGGUUUUUGGGUUUUUGGGAAAGUAUUAUGUUACGCCGUUCGGAUCUGCAC,-0.142
ACCAUGCAGGUGGGCAUCUUUGGGAAGUGGGGCAAGGGGGGGAUAGGGAGGGGGGUAACACUUUGGGAAAAGGUGGUCCCAGGUCGUUUC,0.708
UCAAGUCCUGUGCUACACAUCGUAUGUACCGAAUCGGAGGUUUUUUUGGAAAGGAAAGUAUUAUGUUACGCCGUUCGGAUCUGCACUUCC,-0.838
GCAGGAAGUAAAAACAAAUGGAAAUGCUUCGGAUAGUGGCAGGGGUGGGGGUUGCUAAGGAAAGGGUGGGAGGGGAGUGGGUAAAGAGUU,0.3
UCAAGUCCUGUGCUACACAUCGUAUGUACCGAAUCGGAAAGGGGAAAGGAAAGGAAAGUAUUAUGUUACGCCGUUCGGAUCUGCACUUCC,-0.674
ACCAUGCAGGUGGGCAUCUUUGGGAAGUGGGGCAAGGGGGGGAUUGGGAGGGGGGUAACACUUUGGGAACAGGUGGUCCCAGGUCGUUUC,0.89
GUCCUGUGCUACACAUCGUAUGUACCGAAUCGGGGUUUGGGGUUUGGGGUUUUUGGGGAAAGUAUUAUGUUACGCCGUUCGGAUCUGCAC,1.08
AGUCCUGUGCUACACAUCGUAUGUACCGAAUCGGGUUUUUGGGAAAAAAAGGGAGGGAAAGUAUUAUGUUACGCCGUUCGGAUCUGCACU,0.576
AAGUCCUGUGCUACACAUCGUAUGUACCGAAUCGGGAAAAAAAGGGUUUGGGUGGGAAAGUAUUAUGUUACGCCGUUCGGAUCUGCACUU,0.888

# Series 2
# Target: Histone acetyltransferase KAT6A, winged helix 1, GST fusion (KAT6A, Homo sapiens, UniProt Q92794, residues 1-85)
# Method: protein binding microarray
# Molecule type: double-stranded DNA, one strand shown
# Matrix: in vitro
# Concentration: not given
# Notes: 8-mer, flanks averaged, mean of 2 arrays, mostly near background
# Reference: not given
# Direction: higher = stronger binding
# Target sequence (chain): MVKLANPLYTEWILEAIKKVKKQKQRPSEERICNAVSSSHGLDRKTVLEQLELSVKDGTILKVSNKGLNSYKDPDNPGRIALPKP
Oligonucleotide,E-score
ACGTTCCC,0.0848
GTCGGGAA,0.176
AACAAATG,-0.0693
GCGATACC,0.224
GTAGTGAA,-0.0875
CCTTAAGC,0.0743
AAGCTGTG,-0.194
AATACTTG,-0.148
AGTAGCAA,-0.0202
TAGGCAAA,-0.163
CATTAGGG,-0.0927
ATGCGTCA,0.0822
GCAAGGTA,-0.0649
AGCCGATA,0.0368
CAGGGCGG,0.204
CAATCTCC,0.056
ATGTTGGA,-0.0558
ATCACTTG,-0.213
CAGACCGG,0.285
CTGGACAG,-0.148
CTATTACC,0.0246
TCGGAGAA,0.0625
CTGGACCC,-0.173
CACGTTCG,0.0172

# Series 3
# Target: RNA binding protein fox-1 homolog 2, RRM domain, GST-SBP tag (RBFOX2, Homo sapiens, UniProt O43251-10, residues 100-194)
# Method: RNA Bind-n-Seq
# Molecule type: RNA
# Matrix: in vitro
# Concentration: 365 nM
# Notes: natural RNA segment, single round, ends assumed
# Reference: no-protein control
# Direction: higher = stronger binding
# Shared flanks, not repeated: GGGAGUUCUACAGUCCGACGAUC … UGGAAUUCUCGGGUGCCAA
# Construct (chain): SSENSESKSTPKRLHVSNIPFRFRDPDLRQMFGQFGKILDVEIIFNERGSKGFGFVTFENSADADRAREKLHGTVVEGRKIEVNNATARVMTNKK
Oligonucleotide,RBNS enrichment (R)
CCCAUUUGCUGCCUUUUUUGUUUUUGUGGGGGAAGGGUUGGGAGUAAGUUUAAACUCUUCCGAAGAUUAUGAAUGGGUCAGCACAAAUUUUUAGGCAACUGCUUUUUCCA,0.433
UUUUCCAUACUCAGAAUGAAAAACUGGAUAUUACGUUUUUGUUUUGGGGUUUUUUUGUACAAAUUUAGCUAAUAGCUACAGGCUGAGAGAAUUGUAACAUAGCAUGACAA,51.8
AGAACAAAGCUUAAGCUGCCUUUGUUAUUUUUUGAAAUUGAAAUAAAGUUUACUAAUUUUGACCAAAGUCUGUAUGUGUACUGACUGCUUAAUUGAGGCUCAGAGAGGCA,1.63
AGCAUUCAUUUUGAGAAAAGCAACUUUAGUUUCAAGGAUAAUUUUAAGCUUCAAAAUUAAUCAUUUAAAGUGUUUCUUUAAGAGAGCCAUGUUAGAGGCUCACACUUUAG,0.878
GCAUUGUGAACAACAAGCUCUUAGUGGUGUAUUUACCUGUUAAAACUUAAAAGCAGUGUUAGUGAGUUAGGCAGAGAGAUGAAAGUAAUACAGUCAGUAAGUUUCACUGC,0.467
UCCAUCCUUUCUUUUUUGUAUAUUAUUGUUUACAAUAAAUAUACAUUGCAUUAAAGUGAAAACAGCCCCUUUGACUUAUUCACUCUGUUCUCCUAUGAAGAGUGCUUUAA,0.405
UAUGGAGCAGCCGGAAGUCUGUUCUCAAAGCAGAAGUGGAAUCCAGUGUGGCUCCCACAGGUCUUCACUGCCCAGGGGUCGAAUGGGGUCCCCCUCCCACUUGACCUGAG,0.176
GACUGACUUUCUUACAAAAUGCAUUUGGAAACCAGACCUUUGCUACCCACCAAUGUCUCUGGGUUUUGUACCAGUCCCUGCUCUCAGGCCACCCUGCCCAGGACCCAGGC,0.981

# Series 4
# Target: Protein C-ets-1 (ETS1, Homo sapiens, UniProt P14921, residues 1-441, Y397A, full length assumed)
# Chain of UniProt P14921 (whole entry, unmodified, looked up): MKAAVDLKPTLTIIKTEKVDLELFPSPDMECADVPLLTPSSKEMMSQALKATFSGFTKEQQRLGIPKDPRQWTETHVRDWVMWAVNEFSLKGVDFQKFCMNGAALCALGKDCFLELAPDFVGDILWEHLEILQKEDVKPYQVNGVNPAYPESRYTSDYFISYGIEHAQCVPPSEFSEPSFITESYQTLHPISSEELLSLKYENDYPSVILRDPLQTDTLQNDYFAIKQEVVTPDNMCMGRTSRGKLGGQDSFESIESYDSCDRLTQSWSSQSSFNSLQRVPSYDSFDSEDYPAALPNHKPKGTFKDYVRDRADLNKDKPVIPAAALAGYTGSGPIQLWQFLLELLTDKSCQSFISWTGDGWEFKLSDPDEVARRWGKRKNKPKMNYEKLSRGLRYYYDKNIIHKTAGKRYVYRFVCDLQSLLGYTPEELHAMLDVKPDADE
# Method: protein-binding microarray
# Molecule type: double-stranded DNA, one strand shown
# Matrix: in vitro
# Concentration: not given
# Notes: k-mer, scored over probes, only values ≥0.25
# Direction: higher = stronger binding
Oligonucleotide,E-score
ACTGTACA,0.263
ATATACAT,0.311
GGAAGTAC,0.318
ATACGGCA,0.322
CGTGTGTA,0.286
GACAGGAA,0.274
AACGGATG,0.301
ACCATTAA,0.254
AAATGGCA,0.289
GACACAAA,0.343
CAATGTCG,0.261
ATTGTATA,0.291
ACAATCAT,0.353
CCGACACA,0.338
ATGCGCAT,0.353
CACAACAC,0.29
CATCCGAC,0.26
CGTTGGCA,0.365
GGCGGGGA,0.325
ATGTTAAC,0.265
CAATTGCA,0.279
CCAAACAA,0.252
GTTTGCCA,0.409

# Repeated from above (series 2):
Oligonucleotide,E-score
ATGCGTCA,0.0822
GCAAGGTA,-0.0649
AGCCGATA,0.0368
CAGGGCGG,0.204
CAATCTCC,0.056
ATGTTGGA,-0.0558
ATCACTTG,-0.213
CAGACCGG,0.285
CTGGACAG,-0.148
